Assay results of several laboratories.
Numbered parts are unrelated; each lists some results of a single study. Positions count from the first letter of the parent shown.

Sample 1 — technique: universal PBM; form: double-stranded DNA, one strand shown; matrix: in vitro; tested at: 600 nM; direction: higher = stronger binding
Target: Sal-like protein 4, full length isoform A (SALL4, Homo sapiens, UniProt Q9UJQ4, residues 1-1053)
Chain of UniProt Q9UJQ4 (whole entry, looked up): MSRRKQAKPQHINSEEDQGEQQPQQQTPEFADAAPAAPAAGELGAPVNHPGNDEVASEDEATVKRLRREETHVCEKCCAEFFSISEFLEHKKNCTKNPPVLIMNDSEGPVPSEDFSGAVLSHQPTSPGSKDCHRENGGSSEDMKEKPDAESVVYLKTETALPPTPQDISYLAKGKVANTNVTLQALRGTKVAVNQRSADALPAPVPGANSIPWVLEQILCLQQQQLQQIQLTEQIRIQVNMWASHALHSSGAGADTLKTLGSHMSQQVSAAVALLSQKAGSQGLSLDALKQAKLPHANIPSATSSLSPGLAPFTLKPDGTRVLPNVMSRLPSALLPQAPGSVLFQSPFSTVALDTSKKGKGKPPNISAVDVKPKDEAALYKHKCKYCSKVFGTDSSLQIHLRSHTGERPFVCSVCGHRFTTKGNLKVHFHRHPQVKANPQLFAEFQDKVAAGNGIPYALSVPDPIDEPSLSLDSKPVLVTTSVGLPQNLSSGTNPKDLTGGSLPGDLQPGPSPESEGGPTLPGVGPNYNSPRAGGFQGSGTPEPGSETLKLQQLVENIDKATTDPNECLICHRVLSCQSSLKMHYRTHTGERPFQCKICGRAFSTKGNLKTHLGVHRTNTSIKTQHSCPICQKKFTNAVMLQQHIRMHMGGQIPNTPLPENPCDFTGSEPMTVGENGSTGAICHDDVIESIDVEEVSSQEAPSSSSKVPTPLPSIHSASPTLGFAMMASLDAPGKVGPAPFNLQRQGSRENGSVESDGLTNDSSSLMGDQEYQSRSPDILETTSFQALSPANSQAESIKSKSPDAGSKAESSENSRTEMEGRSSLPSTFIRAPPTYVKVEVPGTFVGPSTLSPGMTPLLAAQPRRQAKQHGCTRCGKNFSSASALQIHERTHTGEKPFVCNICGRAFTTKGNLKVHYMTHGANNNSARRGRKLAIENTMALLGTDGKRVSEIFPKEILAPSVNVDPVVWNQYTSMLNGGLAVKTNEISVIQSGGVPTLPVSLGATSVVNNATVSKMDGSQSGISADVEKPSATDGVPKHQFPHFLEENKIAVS
Setting: 8-mer, flanks averaged, mean of replicates
The E-score of `AAACGATA` is reported as 0.239.
`CTATGCCA` has an E-score of 0.1.
For `GGGGGGCA`, the E-score was -0.308.
With `AAAAAGTA` the E-score was 0.283.
The E-score of `CCGCCATC` is reported as -0.313.
The E-score of `ACACAGGC` is reported as 0.0187.

Sample 2 — technique: RNAcompete; form: RNA; matrix: in vitro; tested at: 20 nM; setting: 7-mer, probes averaged, single round; baseline: mean of 7-mers; direction: higher = stronger binding
Target: PABPC1L2, full length, GST fusion (mouse, UniProt A0ABA7IW68)
Target sequence (chain): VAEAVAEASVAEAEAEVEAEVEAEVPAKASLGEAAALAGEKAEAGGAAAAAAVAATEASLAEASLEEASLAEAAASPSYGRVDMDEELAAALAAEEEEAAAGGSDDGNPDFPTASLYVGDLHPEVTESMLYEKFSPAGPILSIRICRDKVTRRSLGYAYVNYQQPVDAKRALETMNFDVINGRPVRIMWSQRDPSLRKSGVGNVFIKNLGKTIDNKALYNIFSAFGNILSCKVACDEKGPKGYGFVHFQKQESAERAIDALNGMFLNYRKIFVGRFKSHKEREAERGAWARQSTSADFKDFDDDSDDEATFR
With `GGGCGUA` the 7-mer Z-score was 0.22.
With `UUUGUAC` the 7-mer Z-score was -0.309.
`UCAAUUG` gave a 7-mer Z-score of -0.28.
For `UUCGCCU`, the 7-mer Z-score was -0.472.
For `UUACCAU`, the 7-mer Z-score was -0.278.
`CUGCGGA` gave a 7-mer Z-score of 0.0243.
For `CCGCGCA`, the 7-mer Z-score was -0.195.
The 7-mer Z-score of `CCACGAG` is reported as -0.159.

Sample 3 — technique: DHFR PCA, deep sequencing; matrix: yeast; with: (+)-ABA 2500 µM; baseline: wild-type fitted maximum; direction: higher = stronger binding
Target: ABI1, truncated, D143A, DHFR fusion (Arabidopsis thaliana)
Setting: methotrexate growth selection, single substitutions
Starting sequence: PYL1, truncated, DHFR fusion (Arabidopsis thaliana); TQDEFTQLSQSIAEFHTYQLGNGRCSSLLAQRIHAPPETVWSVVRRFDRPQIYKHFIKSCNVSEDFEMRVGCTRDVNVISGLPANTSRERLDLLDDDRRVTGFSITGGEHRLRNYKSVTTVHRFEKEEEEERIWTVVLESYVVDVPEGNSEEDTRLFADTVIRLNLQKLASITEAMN
Under “relative binding score”, `G23L` is recorded as 94.2%.
Under “relative binding score”, `R99N` is recorded as 99.2%.
For `C72P`, “relative binding score” read 62.4%.
Under “relative binding score”, `I79W` is recorded as 97.4%.

Single results of other studies
`PhoQ, residues 284 288 289 292 302 303 HSSMNL` gave a fold induction of 3.19 (PhoP, residues 12 14 15 18 19 NQGLL (Escherichia coli, UniProt P23836); Sort-seq, measured: YFP reporter; E. coli; PhoQ-PhoP variant library, with: 10 µM Mg2+; baseline: high Mg2+ state, higher = stronger signaling).
